Results collected from several papers.
± marks the error that the study gave. Values after ≈ are worked out from the molar mass of the structure shown.

CC[C@H](C)[C@H](NC(=O)[C@H](CO)NC(=O)[C@H](CC(N)=O)NC(=O)[C@H](CC(C)C)NC(=O)[C@H](Cc1ccc(O)cc1)NC(=O)[C@H](CCCCN)NC(=O)[C@H](CCCCN)NC(=O)[C@@H](NC(=O)[C@H](C)NC(=O)[C@H](CCSC)NC(=O)[C@H](CCC(N)=O)NC(=O)[C@H](CCCCN)NC(=O)[C@H](CCCN=C(N)N)NC(=O)[C@H](CC(C)C)NC(=O)[C@H](CCCN=C(N)N)NC(=O)[C@@H](NC(=O)[C@H](Cc1ccc(O)cc1)NC(=O)[C@H](CC(N)=O)NC(=O)[C@H](CC(=O)O)NC(=O)[C@@H](NC(=O)[C@H](Cc1ccccc1)NC(=O)[C@@H](NC(=O)[C@H](C)NC(=O)[C@H](CC(=O)O)NC(=O)[C@H](CO)NC(=O)[C@@H](N)Cc1c[nH]cn1)C(C)C)[C@@H](C)O)[C@@H](C)O)C(C)C)C(=O)N[C@@H](CC(C)C)C(=O)N[C@@H](CC(N)=O)C(N)=O — result for “maximum tolerated dose”: 175 mg/kg (BALB/c mice; acute, unformulated).
For NC(=O)c1cccc(-c2cc(OC(=O)NC3CCCCC3)ccc2O)c1, “volume of distribution” read 4.6 L/kg (mouse; intravenous, 10 mg/kg).
CN[C@@H](C)C(=O)N[C@H]1CN(S(=O)(=O)c2cccc(S(=O)(=O)N3CC[C@H]4CC[C@@H](C(=O)NC(c5ccccc5)c5ccccc5)N4C(=O)[C@@H](NC(=O)[C@H](C)NC)C3)c2)CC[C@H]2CC[C@@H](C(=O)NC(c3ccccc3)c3ccccc3)N2C1=O — result for “treatment-related ALT elevation incidence”: 0% (patients with advanced solid tumours; 4 mg, phase I monotherapy).
O=c1nc(NO)ccn1[C@@H]1O[C@H](CO)[C@@H](O)[C@H]1O gave an autosampler stability of 98.5 ± 16.8% (rat maternal blood dialysate; 1000 ng/mL, 6 h, 10 °C, high QC concentration, with: molnupiravir).
Under “volume of distribution”, CN(C)C1(CNC(=O)c2ccc3c(c2)CCN3C(=O)c2ccccc2)CCOCC1 is recorded as 193 L/kg (ICR mouse male, plasma; intraperitoneal, 30 mg/kg).
With CC(=O)c1c(C)c2cnc(Nc3ccc(C4CCN(CCS(C)(=O)=O)CC4)cn3)nc2n(C2CCCC2)c1=O the Cmax was 432 ng/mL (human, dose-escalation trial, plasma; oral, 100 mg twice daily, day 21, multiple doses).
Under “patients with acneiform dermatitis”, O=C1Nc2cc3[nH]nc(-c4ccncc4)c3cc2CN1Cc1ccccc1 is recorded as 0% (CTCAE v4.03; advanced solid tumour patients; intravenous, 4.8 mg/kg).
For CC(C)=CC1C(C(=O)OC(C#N)c2cccc(Oc3ccccc3)c2)C1(C)C (stereo not drawn), “enzyme contribution to clearance” read 0.9% (measured: CYP2C19; human, age 5 years).
The half-life of CCC[C@@](N)(CO)CCc1ccc(OCCCCCC(C)C)cc1 is reported as 9.2 h (hound dogs, male; oral, 5 mg/kg, capsule, fed state, median).
CC(C)[C@@H]1NC(=O)CNC(=O)[C@H](CC(N)=O)NC(=O)[C@H](CCCNC(=N)N)NC(=O)[C@H](Cc2ccc(O)cc2)NC(=O)[C@H](C(C)C)NC(=O)[C@@H](NC(=O)[C@@H](NC(=O)[C@H](CC(N)=O)NC(=O)[C@H](Cc2c[nH]c3ccccc23)NC(=O)[C@H](C)NC(=O)[C@H](Cc2ccccc2)NC(=O)CN)C(C)C)CSSC[C@@H](C(=O)N[C@@H](Cc2cnc[nH]2)C(=O)N[C@@H](CCCNC(=N)N)C(=O)N[C@@H](CCCNC(=N)N)C(=O)N[C@@H](C)C(=O)N[C@@H](CC(N)=O)C(N)=O)NC(=O)[C@H](C(C)C)NC(=O)[C@H](CCCNC(=N)N)NC1=O gave a remaining peptide of 54.3% (HPLC; mouse kidney homogenate; 2560 µM, 2.00 h, 37 °C, 50 mg/mL tissue).
C[C@@H](NC(=O)N1C(=O)[C@H](Cc2ccnc(N)c2)[C@H]1C(=O)O)C1CCCCC1: “incidence of mild AEs” 87.5% (healthy adult Chinese volunteers; continuous intravenous infusion, 0.6 mg/kg/h, 5-day infusion, CTCAE 5.0 grading).
C[C@@H](Oc1cc(-c2cnn(C3CCNCC3)c2)cnc1N)c1c(Cl)ccc(F)c1Cl — result for “maximum tolerated dose”: 150 mg/kg (CD1 nude mice; oral, 20 days daily).
Under “treatment-emergent adverse events”, CC(C)(O)c1cc(Nc2cc(Oc3cn(C4CC4)nc3C3CCOCC3)ccn2)ccn1 is recorded as 22% (measured: Constipation; Japanese patients with advanced cancer; oral, dose not given, any grade).
With COc1ncccc1-c1cnn2ccc(N3CCN(C(=O)OC(C)C)CC3)nc12 the concentration was 35 µM (mouse SNL model, brain; oral, 30 mg/kg, 30 min).
Under “cobalt in faeces”, O.O.O.O.O.O.[Cl-].[Cl-].[Co+2] is recorded as 47.5 µg/g (rat female, faeces; oral gavage, 10 mg/kg single, day 1, pooled samples; reference: vehicle control subtracted).
With CO[C@H]1C[C@@H]2CC[C@@H](C)[C@@](O)(O2)C(=O)C(=O)N2CCCC[C@H]2C(=O)O[C@H]([C@H](C)C[C@@H]2CC[C@@H](OC(=O)NCCOCCOCCOCCOCCOCCOCCOCCOCCC(=O)N3CCc4cc(Cn5nc(-c6ccc7oc(N)nc7c6)c6c(N)ncnc65)ccc4C3)[C@H](OC)C2)C[C@@H](O)[C@H](C)/C=C(\C)[C@@H](O)[C@@H](OC)C(=O)[C@H](C)C[C@H](C)/C=C/C=C/C=C/1C the TRAE incidence was 25% (phase 1 dose escalation, measured: decreased appetite; advanced solid tumour patients; intravenous, 8 mg weekly, any grade).
C[C@@H]1NC(=O)[C@H](CCCCNC(=O)CO/N=C/C(=O)NCCCC[C@@H]2NC(=O)[C@@H](Cc3ccccc3)NC(=O)[C@H](CC(=O)O)NC(=O)CNC(=O)[C@H](CCCNC(=N)N)NC2=O)NC(=O)CNC(=O)[C@@H]2CCCN2C(=O)[C@H](CCCCNC(=O)CO/N=C/C(=O)NCCCC[C@@H]2NC(=O)[C@@H](Cc3ccccc3)NC(=O)[C@H](CC(=O)O)NC(=O)CNC(=O)[C@H](CCCNC(=N)N)NC2=O)NC(=O)[C@H](CCCCNC(=O)[C@H](CCCCN)NC(=O)[C@H](Cc2ccccc2)NC(=O)CNC(=O)CN2CCCNCCNCCCNCC2)NC(=O)[C@H](CCCCNC(=O)CO/N=C/C(=O)NCCCC[C@@H]2NC(=O)[C@@H](Cc3ccccc3)NC(=O)[C@H](CC(=O)O)NC(=O)CNC(=O)[C@H](CCCNC(=N)N)NC2=O)NC(=O)CNC(=O)[C@@H]2CCCN2C(=O)[C@H](CCCCNC(=O)CO/N=C/C(=O)NCCCC[C@@H]2NC(=O)[C@@H](Cc3ccccc3)NC(=O)[C@H](CC(=O)O)NC(=O)CNC(=O)[C@H](CCCNC(=N)N)NC2=O)NC1=O [copper-64 labelled] gave a tissue uptake of 1.45 ± 0.06 %ID/g (PET imaging; mouse, U-87 MG tumour xenograft, tumor; intravenous, 24 h).
For COc1ccnc(C(=O)N[C@H]2COC(=O)[C@H](Cc3ccccc3)[C@@H](OC(=O)C(C)C)[C@H](C)OC2=O)c1OCOC(=O)C(C)C, the DT50 was 1.3 days (aerobic dark soil incubation; soil; geometric mean of 4 soils, persistence endpoint).
For COc1cc2c(Oc3ccc4[nH]c(C)cc4c3F)ccnc2cc1OCC1(N)CC1, “grade 3 Vomiting” read 0% (paediatric recurrent refractory sarcoma; 8 mg).
The AUC of Cn1ncc(-c2nc(N[C@H]3CC[C@H](N)CC3)ncc2Cl)c1CC1CC1 is reported as 3770 ng·h/mL (HPLC-MS/MS; patients, plasma; oral, 21 mg, day 5).
For C[C@]1(CO)Cc2ncn(-c3ccc(C#N)c(Cl)c3)c2C(=O)O1, the AUC(0-inf) was 8.21 µM·h (human, plasma; 40 mg single dose, geometric mean).
For Fc1ccc([C@@H]2CCNC[C@H]2COc2ccc3c(c2)OCO3)cc1, “List of Complaints score” read 0 score (measured: Headache; healthy volunteers; oral, dose not given, given -1 h relative to LSD, with: LSD; direction not given).
NCCCC[C@@H]1NC(=O)[C@@H](Cc2c[nH]c3ccccc23)NC(=O)[C@H](c2ccccc2)NC(=O)[C@@H]2C[C@@H](OC(=O)NCCN)CN2C(=O)[C@H](Cc2ccccc2)NC(=O)[C@H](Cc2ccc(OCc3ccccc3)cc2)NC1=O: “subjects with decreased appetite” 4% (healthy human volunteers; 600 µg twice daily).
COc1cc(Nc2ncc(F)c(Nc3ccc4c(n3)NC(=O)C(C)(C)O4)n2)cc(OC)c1OC has a solubility of 2.9 µM (≈ 1.36 µg/mL) (PBS; 24 h, pH 7.4, 0.1% DMSO).
Under “tumour to organ ratio”, O=C1[O][Pt]2([NH][C@@H]3CCCC[C@H]3[NH]2)[O]C1=O is recorded as 0.4 (AUC-based, measured: platinum; BALB/c mice, CT26 tumour; iv; reference: tumour over liver).
For Clc1ccc(-c2ccccc2)cc1, the serum gamma-glutamyltransferase was 0 U/L (Sprague-Dawley rat female, serum; inhalation, 35 µg/rat, 24 h).
O=S(=O)(Nc1ccccc1)c1ccc(NC(=S)Nc2ccccc2)cc1 — result for “relative organ weight”: 2.26% (mouse, male, small intestine; oral, 20 mg/kg daily, 14 days; reference: body weight).

Repeated from above:
The AUC of Cn1ncc(-c2nc(N[C@H]3CC[C@H](N)CC3)ncc2Cl)c1CC1CC1 is reported as 3770 ng·h/mL (HPLC-MS/MS; patients, plasma; oral, 21 mg, day 5).
C[C@@H]1NC(=O)[C@H](CCCCNC(=O)CO/N=C/C(=O)NCCCC[C@@H]2NC(=O)[C@@H](Cc3ccccc3)NC(=O)[C@H](CC(=O)O)NC(=O)CNC(=O)[C@H](CCCNC(=N)N)NC2=O)NC(=O)CNC(=O)[C@@H]2CCCN2C(=O)[C@H](CCCCNC(=O)CO/N=C/C(=O)NCCCC[C@@H]2NC(=O)[C@@H](Cc3ccccc3)NC(=O)[C@H](CC(=O)O)NC(=O)CNC(=O)[C@H](CCCNC(=N)N)NC2=O)NC(=O)[C@H](CCCCNC(=O)[C@H](CCCCN)NC(=O)[C@H](Cc2ccccc2)NC(=O)CNC(=O)CN2CCCNCCNCCCNCC2)NC(=O)[C@H](CCCCNC(=O)CO/N=C/C(=O)NCCCC[C@@H]2NC(=O)[C@@H](Cc3ccccc3)NC(=O)[C@H](CC(=O)O)NC(=O)CNC(=O)[C@H](CCCNC(=N)N)NC2=O)NC(=O)CNC(=O)[C@@H]2CCCN2C(=O)[C@H](CCCCNC(=O)CO/N=C/C(=O)NCCCC[C@@H]2NC(=O)[C@@H](Cc3ccccc3)NC(=O)[C@H](CC(=O)O)NC(=O)CNC(=O)[C@H](CCCNC(=N)N)NC2=O)NC1=O [copper-64 labelled] gave a tissue uptake of 1.45 ± 0.06 %ID/g (PET imaging; mouse, U-87 MG tumour xenograft, tumor; intravenous, 24 h).
